Experimental data from different studies.
Numbered parts are unrelated; each lists some results of a single study.
UniProt P36897, sequence (whole entry, looked up): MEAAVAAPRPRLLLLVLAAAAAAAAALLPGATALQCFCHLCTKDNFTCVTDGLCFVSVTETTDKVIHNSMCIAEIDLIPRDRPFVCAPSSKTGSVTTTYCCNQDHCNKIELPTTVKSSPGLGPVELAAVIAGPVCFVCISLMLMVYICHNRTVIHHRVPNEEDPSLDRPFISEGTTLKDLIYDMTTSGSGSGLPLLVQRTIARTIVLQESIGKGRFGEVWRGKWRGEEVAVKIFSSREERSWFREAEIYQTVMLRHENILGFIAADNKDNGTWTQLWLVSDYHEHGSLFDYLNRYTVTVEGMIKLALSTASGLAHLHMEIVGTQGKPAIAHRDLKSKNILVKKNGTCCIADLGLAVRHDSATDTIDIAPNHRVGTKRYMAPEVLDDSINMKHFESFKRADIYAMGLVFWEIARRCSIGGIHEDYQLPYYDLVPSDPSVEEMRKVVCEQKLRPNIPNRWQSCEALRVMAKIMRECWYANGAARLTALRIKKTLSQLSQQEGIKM
UniProt P37023, sequence (whole entry, looked up): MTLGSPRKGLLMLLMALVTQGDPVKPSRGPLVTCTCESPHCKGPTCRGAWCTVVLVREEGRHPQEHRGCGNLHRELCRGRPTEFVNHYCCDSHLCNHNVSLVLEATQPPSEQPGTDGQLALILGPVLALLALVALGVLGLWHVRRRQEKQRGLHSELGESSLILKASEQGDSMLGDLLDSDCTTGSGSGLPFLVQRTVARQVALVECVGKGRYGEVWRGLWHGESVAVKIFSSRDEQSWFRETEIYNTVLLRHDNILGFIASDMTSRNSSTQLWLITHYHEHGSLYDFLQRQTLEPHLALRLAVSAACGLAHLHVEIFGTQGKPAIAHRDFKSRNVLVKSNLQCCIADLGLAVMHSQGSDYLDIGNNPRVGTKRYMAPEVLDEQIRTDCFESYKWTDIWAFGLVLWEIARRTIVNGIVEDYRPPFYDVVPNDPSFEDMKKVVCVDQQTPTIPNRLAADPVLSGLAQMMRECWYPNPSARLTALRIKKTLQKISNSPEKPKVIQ
UniProt O00329, sequence (whole entry, looked up): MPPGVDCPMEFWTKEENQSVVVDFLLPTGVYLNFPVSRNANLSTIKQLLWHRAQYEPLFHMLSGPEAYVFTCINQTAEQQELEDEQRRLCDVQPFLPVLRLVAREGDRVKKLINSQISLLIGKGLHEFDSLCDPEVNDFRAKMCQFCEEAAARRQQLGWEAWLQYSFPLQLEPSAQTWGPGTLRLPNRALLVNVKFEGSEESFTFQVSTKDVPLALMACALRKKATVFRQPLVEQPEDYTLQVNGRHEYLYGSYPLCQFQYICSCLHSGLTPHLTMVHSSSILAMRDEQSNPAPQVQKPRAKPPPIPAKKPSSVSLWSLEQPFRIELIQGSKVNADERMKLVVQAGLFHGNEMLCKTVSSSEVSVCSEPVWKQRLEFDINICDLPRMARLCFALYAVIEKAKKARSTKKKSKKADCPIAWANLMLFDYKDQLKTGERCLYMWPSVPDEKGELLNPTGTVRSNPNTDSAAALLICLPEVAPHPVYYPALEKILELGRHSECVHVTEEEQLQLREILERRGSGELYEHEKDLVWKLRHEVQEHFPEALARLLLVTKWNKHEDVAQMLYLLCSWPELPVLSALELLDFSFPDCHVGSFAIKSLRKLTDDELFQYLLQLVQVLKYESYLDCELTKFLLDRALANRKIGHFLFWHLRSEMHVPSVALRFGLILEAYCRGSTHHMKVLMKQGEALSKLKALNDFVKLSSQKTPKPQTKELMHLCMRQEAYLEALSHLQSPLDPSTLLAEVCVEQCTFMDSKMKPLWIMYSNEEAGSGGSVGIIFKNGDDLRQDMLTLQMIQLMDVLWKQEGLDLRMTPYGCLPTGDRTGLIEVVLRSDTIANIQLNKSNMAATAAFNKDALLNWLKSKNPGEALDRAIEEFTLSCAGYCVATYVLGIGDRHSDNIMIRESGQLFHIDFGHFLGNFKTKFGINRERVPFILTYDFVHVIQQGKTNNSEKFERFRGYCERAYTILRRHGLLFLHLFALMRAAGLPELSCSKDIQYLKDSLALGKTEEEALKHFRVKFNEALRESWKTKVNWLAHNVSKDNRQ
UniProt Q15349, sequence (whole entry, looked up): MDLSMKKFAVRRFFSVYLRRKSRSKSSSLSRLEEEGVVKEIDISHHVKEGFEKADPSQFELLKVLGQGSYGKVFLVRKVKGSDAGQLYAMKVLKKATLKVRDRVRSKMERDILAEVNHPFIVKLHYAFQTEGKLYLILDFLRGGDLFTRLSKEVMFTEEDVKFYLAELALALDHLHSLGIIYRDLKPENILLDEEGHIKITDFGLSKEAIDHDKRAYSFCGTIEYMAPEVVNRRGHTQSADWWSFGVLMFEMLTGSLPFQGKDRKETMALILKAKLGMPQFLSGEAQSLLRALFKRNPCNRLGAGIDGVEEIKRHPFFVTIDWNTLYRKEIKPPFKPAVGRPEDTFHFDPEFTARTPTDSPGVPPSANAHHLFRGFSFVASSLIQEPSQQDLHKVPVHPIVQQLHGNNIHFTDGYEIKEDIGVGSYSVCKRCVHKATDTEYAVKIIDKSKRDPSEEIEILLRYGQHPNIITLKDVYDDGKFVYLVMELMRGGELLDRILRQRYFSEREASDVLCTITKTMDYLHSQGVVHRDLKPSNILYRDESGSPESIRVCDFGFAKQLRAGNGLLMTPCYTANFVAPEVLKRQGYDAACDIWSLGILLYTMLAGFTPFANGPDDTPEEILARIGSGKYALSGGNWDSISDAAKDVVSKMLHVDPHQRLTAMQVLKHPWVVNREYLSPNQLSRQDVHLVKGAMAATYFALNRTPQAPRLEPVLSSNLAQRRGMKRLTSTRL
UniProt Q13555, sequence (whole entry, looked up): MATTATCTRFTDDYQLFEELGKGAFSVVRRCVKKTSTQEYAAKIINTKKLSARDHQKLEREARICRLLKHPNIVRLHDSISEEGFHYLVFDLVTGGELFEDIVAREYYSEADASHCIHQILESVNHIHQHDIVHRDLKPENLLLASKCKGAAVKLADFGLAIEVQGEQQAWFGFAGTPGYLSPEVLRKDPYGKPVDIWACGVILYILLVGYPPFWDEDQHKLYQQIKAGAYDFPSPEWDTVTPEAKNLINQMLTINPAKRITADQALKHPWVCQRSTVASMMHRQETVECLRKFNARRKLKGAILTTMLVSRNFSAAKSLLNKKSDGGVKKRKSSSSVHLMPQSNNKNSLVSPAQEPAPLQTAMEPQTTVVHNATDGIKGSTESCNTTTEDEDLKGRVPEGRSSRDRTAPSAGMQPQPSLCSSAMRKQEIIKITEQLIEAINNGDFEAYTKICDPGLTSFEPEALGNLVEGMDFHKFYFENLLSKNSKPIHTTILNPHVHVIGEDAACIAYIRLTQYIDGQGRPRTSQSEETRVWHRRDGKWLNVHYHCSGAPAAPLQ

Sample 1 — organism: Sarcocystis neurona; observed: parasite growth; tested at: 10 µM; time: 96 h; setting: second screen; reference: untreated; endpoint: log2 fold change
CCn1cc(C(=O)O)c(=O)c2cc(F)c(N3CCNCC3)cc21: 0.3
NS(=O)(=O)c1cc(C2(O)NC(=O)c3ccccc32)ccc1Cl (stereo not drawn): 0.21
CN1CCN(CCCN2c3ccccc3Sc3ccc(Cl)cc32)CC1: 0.1
COc1c2occc2cc2ccc(=O)oc12: 0.25
CCN1CCC[C@H]1CNC(=O)c1c(O)c(Cl)cc(Cl)c1OC: 0.35

Sample 2 — observed: enzyme activity; action: inhibitor; tested at: 0.5 µM; reference: control; endpoint: remaining activity
Target: Tyrosine-protein kinase Fyn (FYN, Homo sapiens, UniProt P06241)
UniProt P06241, sequence (whole entry, looked up): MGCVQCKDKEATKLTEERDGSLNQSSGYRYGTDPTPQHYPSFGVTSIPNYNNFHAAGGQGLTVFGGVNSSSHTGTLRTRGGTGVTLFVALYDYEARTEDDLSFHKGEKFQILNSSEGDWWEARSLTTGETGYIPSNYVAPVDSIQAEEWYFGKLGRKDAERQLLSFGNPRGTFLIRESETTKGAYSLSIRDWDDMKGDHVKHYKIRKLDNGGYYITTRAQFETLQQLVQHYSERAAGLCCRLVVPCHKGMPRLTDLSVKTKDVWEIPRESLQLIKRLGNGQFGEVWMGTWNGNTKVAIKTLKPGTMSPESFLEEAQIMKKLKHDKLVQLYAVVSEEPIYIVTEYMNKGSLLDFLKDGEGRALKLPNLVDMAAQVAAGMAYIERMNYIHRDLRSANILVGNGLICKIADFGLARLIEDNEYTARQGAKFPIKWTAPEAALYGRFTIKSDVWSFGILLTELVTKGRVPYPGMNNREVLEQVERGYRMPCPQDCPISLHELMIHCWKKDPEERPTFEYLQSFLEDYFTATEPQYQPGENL
Cn1c2ccccc2c2c3c(c4c5ccccc5n(CCC#N)c4c21)CNC3=O: 90.6%
O=C(O)c1ccc2c3c1cccc3c(=O)n1c3ccccc3nc21: 94%
CC(C)[C@H](CO)Nc1nc(Nc2cc(N)cc(Cl)c2)c2ncn(C(C)C)c2n1: 18.9%
COc1ccc(OC)c2c(=S)c3ccccc3[nH]c12: 101%
OCC(O)CCON=C1C(c2c(O)[nH]c3ccccc23)=Nc2ccccc21 (stereo not drawn): 13%
O=S(=O)(c1cccc2cnccc12)N1CCCNCC1: 106%
Cc1ccc(NC(=O)c2ccc(CN3CCN(C)CC3)cc2)cc1Nc1nc(-c2cccnc2)cs1: 37.3%
Cn1sc(=O)n(Cc2ccccc2)c1=O: 105%
N#CC(C#N)=C(N)/C(C#N)=C/c1ccc(O)cc1: 98.4%
COc1cc2ncnc(Nc3ccc(Oc4ccccc4)cc3)c2cc1OC: 26.9%
Cc1nc(-c2ccccc2)c(-c2ccncc2)o1: 99.8%
Nc1ccc2ncnc(NCCc3ccc(Oc4ccccc4)cc3)c2c1: 103%
Nc1[nH]nc2nc3ccccc3nc12: 96.1%
CO[C@H]1C[C@@H]2CC[C@@H](C)[C@@](O)(O2)C(=O)C(=O)N2CCCC[C@H]2C(=O)O[C@H]([C@H](C)C[C@@H]2CC[C@@H](O)[C@H](OC)C2)CC(=O)[C@H](C)/C=C(\C)[C@@H](O)[C@@H](OC)C(=O)[C@H](C)C[C@H](C)/C=C/C=C/C=C/1C: 109%

Sample 3 — species: human; matrix: microsomes or S9; tested at: 2 µM; time: 0.5 h; endpoint: remaining compound
O=C(O)/C=C/c1ccc2c(c1)N(Cc1ccccc1)C(=O)CO2: 74.3%
CN(Cc1ccccc1)c1nc2ccccc2n1CC(O)COc1ccccc1 (stereo not drawn): 0.694%
COCCN(Cc1ccn(C)c(=O)c1)Cc1cccs1: 0.0748%
COCCOCC(OC(=O)c1ccc(NC(N)=O)cc1)C(C)(C)C (stereo not drawn): 44.4%
COc1ccc(C)cc1N(CC(=O)Nc1ccc(S(=O)(=O)N2CCCC2)cc1)S(C)(=O)=O: 0.688%
O=C(c1ccccc1)c1ccccc1Nc1cccc2c1N(c1ncccn1)CC2: 0.408%
Clc1ccc(-c2nc3cnc4ccccc4c3s2)cc1: 35.4%
CCOC(=O)C1CCN(c2nc(-c3ccc(S(C)(=O)=O)cc3)ncc2OC)CC1: 1.6%

Sample 4 — technique: competition with immobilised ligand; tested at: 1 µM; endpoint: remaining binding
Compound: Cc1noc([C@H]2C[C@@H](c3ccc(C(F)(F)F)cc3)CN(C(=O)N3CCS(=O)(=O)C3)C2)n1
TGFBR1 (Homo sapiens, UniProt P36897); cell-free assay: 100%
Tyrosine-protein kinase ABL1, non-phosphorylated (ABL1, Homo sapiens, UniProt P00519, H396P); cell-free assay: 100%
ACVRL1 (Homo sapiens, UniProt P37023); binding: 100%
PIK3CD (Homo sapiens, UniProt O00329); cell-free assay: 100%
Ribosomal protein S6 kinase alpha-2, C-terminal kinase domain (RPS6KA2, Homo sapiens, UniProt Q15349); cell-free assay: 92%
CAMK2G (Homo sapiens, UniProt Q13555); cell-free assay: 100%

Excerpt of the above (sample 2):
COc1cc2ncnc(Nc3ccc(Oc4ccccc4)cc3)c2cc1OC: 26.9%
Nc1ccc2ncnc(NCCc3ccc(Oc4ccccc4)cc3)c2c1: 103%
